Experimental data collected from several papers.
Parts stem from different laboratories: compare values within a part only.

Block 1
Target: Prothrombin, mature alpha-thrombin (F2, Homo sapiens, UniProt P00734)
Technique: aptamer microarray, sandwich
Form: DNA with 2'F-ANA
Sample: in vitro
Tested at: 200 nM
Notes: whole 15-mer aptamer, many near background
With: Cy3 exosite-II aptamer, 400 nM
Direction: higher = stronger binding
Sequence: GGTTGGTGTGGTTGG
Modification	mean fluorescence intensity [a.u.]
2'F-ANA at 5 8 9 11 13	60.1
2'F-ANA at 1 2 3 8 10 11 13 14	50.7
2'F-ANA at 1 2 3 5 7 8 11 12 14	57.4
2'F-ANA at 1 3 5 6 7 8 11 13 15	53.2
2'F-ANA at 4 7 9 13 15	179

Block 2
Target: Sal-like protein 4, full length isoform A (SALL4, Homo sapiens, UniProt Q9UJQ4, residues 1-1053)
UniProt Q9UJQ4, sequence (whole entry, looked up): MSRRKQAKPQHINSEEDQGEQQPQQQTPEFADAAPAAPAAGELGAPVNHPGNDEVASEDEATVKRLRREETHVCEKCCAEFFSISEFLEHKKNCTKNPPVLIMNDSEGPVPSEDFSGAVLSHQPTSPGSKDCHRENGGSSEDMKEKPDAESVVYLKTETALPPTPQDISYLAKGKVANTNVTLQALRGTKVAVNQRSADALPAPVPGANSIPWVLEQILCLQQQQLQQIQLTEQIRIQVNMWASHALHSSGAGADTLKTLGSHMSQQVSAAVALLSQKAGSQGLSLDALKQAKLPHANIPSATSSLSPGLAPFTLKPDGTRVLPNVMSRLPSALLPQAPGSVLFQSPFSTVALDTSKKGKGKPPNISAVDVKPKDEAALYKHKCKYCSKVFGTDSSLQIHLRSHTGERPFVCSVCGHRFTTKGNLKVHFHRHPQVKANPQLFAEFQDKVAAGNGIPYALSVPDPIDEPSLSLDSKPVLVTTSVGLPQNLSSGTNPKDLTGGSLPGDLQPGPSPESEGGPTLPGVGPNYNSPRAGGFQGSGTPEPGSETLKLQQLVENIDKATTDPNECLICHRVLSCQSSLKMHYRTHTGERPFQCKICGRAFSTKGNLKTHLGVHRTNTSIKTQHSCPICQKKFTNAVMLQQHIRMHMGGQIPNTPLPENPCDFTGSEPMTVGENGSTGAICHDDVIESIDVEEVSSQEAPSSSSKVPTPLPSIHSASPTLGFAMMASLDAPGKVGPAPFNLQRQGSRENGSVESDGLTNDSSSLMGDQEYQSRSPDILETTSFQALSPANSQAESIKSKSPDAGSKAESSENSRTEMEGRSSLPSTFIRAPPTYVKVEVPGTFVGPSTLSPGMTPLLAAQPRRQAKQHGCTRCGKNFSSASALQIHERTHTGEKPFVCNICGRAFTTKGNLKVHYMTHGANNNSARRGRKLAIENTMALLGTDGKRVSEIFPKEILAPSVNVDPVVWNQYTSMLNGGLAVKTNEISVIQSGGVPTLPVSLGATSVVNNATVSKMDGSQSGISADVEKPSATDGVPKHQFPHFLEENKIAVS
Technique: universal PBM
Form: double-stranded DNA, one strand shown
Sample: in vitro
Tested at: 600 nM
Notes: 8-mer, flanks averaged, mean of replicates
Direction: higher = stronger binding
Sequence	E-score
CTACGTTA	0.173
CATAGTGG	0.0162
CCCTTCTA	-0.125
GCGTGCGA	-0.261
CTGACTGA	-0.144
CAGTGAGA	-0.0442
ACCATCAA	0.156

Block 3
Target: RING finger protein unkempt homolog, zinc fingers 1-6, GST-SBP tag (UNK, Homo sapiens, UniProt Q9C0B0, residues 30-357)
UniProt Q9C0B0, sequence (30-357, looked up): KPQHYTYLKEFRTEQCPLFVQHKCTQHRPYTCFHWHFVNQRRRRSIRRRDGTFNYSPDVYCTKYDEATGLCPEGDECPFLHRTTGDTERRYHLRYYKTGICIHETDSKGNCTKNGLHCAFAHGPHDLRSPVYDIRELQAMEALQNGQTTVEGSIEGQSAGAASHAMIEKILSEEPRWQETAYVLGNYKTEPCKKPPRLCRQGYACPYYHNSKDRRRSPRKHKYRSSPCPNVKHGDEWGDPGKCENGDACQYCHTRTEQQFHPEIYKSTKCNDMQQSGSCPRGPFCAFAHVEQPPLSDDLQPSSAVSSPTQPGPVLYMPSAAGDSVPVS
Technique: RNA Bind-n-Seq
Form: RNA
Sample: in vitro
Tested at: not given
Notes: RNA with constant flanks, human and mouse sites, ends assumed
Reference: input RNA pool
Direction: higher = stronger binding
Sequence	bound/input enrichment [ratio]
GGGAGUUCUACAGUCCGACGAUCUCCCGGACCGCAGCGUUAAAAGGAUCUGAACAAAGUCUGCUCAAAUCUCCUGCUGUGAACCAGCAGAAUUUUUGAACAGGUUUCUUCACAUAUAAAAAUCUAUUGUAAAAAUACGGAAAACAACAGAGGAUUGAGCAUCA	0.216
GGGAGUUCUACAGUCCGACGAUCUAGUAUGUGAAUUUUAUACAAUUGGAAGUCAUCCUCCCCUGGCUCCCACUUCUGUCUUCAAGUUUUGCCUGUUUCCACUUUUUCUCCCAAACCAUUUCUGCUACAGUGUUCCCUGAACCGCAACAGAGGAUUGAGCAUCA	2.8
GGGAGUUCUACAGUCCGACGAUCGACAGAGGAAGAAAAACAGCAGAUCCUUCAUUCAGAGGAAUUUCUCAUCUUUUUUGACCGGACAAUACGGGUAAUUGAAAGAGCCCUGGCUGAAGAUUCCGACAUCUUUUUUGACUACAGCAACAGAGGAUUGAGCAUCA	0.211
GGGAGUUCUACAGUCCGACGAUCGACCACGAUGAGUGUGCCGCACUUCCGGCCAGAUCGCCGGAUUUCCGCUGAGUGACCCUUACAAGUCCUUCUUGAUCCUGAACUGGGUUAGGUGCCGCUGUUGCUGCUCGUGUUGAAUCUCAACAGAGGAUUGAGCAUCA	0.109

Other studies, line by line
Molecule	target	assay	test system	setting	how to read	quantity	result
PhoQ, residues 284 288 289 292 302 303 SNGLAW	PhoP, residues 12 14 15 18 19 AQALL (Escherichia coli, UniProt P23836)	Sort-seq, item: YFP reporter	E. coli	PhoQ-PhoP variant library, with: 10 µM Mg2+	reference: high Mg2+ state, higher = stronger signaling	fold induction	12.7

A few entries again (block 1):
Modification	mean fluorescence intensity [a.u.]
2'F-ANA at 5 8 9 11 13	60.1
2'F-ANA at 1 2 3 8 10 11 13 14	50.7
